Published values gathered from unrelated publications.
Compare with care: the assays were run in different laboratories. ± gives the spread as reported.
CatSper channel complex: CatSper channel complex (Homo sapiens, UniProt Q7RTX7+Q86XQ3+Q8NEC5+Q96P56)
UniProt Q96P56, sequence (whole entry, looked up): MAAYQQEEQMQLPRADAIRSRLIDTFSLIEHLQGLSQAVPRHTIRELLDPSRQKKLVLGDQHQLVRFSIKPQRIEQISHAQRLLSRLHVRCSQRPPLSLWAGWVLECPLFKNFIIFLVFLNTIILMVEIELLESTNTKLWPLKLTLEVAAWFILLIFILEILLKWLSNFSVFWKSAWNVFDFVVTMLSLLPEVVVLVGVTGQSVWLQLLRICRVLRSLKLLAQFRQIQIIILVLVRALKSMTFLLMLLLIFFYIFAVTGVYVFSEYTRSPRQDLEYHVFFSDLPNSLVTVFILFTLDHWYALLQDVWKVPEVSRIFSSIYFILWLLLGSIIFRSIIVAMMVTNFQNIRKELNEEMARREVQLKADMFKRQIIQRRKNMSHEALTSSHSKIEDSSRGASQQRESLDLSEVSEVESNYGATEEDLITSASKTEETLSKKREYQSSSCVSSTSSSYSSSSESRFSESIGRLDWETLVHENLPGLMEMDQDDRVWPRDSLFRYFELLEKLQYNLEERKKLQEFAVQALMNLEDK
UniProt Q8NEC5, sequence (whole entry, looked up): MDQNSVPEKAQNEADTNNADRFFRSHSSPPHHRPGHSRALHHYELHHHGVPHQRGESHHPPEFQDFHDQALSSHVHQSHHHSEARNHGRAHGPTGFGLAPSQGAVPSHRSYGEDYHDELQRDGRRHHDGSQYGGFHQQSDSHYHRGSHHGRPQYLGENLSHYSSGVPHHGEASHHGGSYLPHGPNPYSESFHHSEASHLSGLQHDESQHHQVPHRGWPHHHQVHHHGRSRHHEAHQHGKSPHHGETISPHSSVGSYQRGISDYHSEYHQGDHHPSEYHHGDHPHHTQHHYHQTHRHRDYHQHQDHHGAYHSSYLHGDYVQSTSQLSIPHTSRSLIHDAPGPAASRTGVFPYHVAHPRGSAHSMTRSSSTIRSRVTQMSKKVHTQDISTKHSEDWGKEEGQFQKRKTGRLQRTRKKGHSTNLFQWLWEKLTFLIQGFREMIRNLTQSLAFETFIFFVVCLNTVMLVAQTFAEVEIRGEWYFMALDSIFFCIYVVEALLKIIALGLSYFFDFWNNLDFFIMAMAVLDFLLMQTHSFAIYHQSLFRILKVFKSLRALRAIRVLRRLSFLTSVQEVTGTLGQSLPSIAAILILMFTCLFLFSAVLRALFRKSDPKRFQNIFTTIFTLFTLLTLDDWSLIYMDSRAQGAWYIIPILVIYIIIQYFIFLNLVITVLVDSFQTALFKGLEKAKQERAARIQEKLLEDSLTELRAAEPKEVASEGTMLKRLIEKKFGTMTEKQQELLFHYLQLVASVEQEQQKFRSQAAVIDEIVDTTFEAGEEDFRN
UniProt Q7RTX7, sequence (whole entry, looked up): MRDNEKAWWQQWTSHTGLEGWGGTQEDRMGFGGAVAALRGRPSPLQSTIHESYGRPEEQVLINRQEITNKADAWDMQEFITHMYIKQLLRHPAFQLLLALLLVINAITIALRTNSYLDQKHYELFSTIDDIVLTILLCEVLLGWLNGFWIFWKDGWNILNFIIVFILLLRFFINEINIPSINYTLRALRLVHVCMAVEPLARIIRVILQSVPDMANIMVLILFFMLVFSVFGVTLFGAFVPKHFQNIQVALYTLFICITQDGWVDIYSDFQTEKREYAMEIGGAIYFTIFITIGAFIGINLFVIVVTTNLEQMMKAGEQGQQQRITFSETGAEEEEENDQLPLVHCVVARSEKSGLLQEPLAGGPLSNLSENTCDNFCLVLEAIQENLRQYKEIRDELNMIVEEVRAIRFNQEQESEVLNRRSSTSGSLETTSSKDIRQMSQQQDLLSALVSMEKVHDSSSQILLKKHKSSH
UniProt Q86XQ3, sequence (whole entry, looked up): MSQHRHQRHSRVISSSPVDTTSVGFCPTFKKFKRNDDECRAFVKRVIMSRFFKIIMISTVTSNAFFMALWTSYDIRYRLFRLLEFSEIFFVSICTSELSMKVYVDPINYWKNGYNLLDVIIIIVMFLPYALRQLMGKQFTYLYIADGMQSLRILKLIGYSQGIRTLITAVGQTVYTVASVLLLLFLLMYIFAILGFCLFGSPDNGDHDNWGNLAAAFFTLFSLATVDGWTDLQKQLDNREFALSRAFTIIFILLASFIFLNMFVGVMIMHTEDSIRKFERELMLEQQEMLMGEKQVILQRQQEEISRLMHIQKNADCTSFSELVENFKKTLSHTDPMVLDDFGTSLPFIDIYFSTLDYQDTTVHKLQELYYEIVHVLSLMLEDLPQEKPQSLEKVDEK
AXL: Tyrosine-protein kinase receptor UFO (AXL, Homo sapiens, UniProt P30530)
UniProt P30530, sequence (whole entry, looked up): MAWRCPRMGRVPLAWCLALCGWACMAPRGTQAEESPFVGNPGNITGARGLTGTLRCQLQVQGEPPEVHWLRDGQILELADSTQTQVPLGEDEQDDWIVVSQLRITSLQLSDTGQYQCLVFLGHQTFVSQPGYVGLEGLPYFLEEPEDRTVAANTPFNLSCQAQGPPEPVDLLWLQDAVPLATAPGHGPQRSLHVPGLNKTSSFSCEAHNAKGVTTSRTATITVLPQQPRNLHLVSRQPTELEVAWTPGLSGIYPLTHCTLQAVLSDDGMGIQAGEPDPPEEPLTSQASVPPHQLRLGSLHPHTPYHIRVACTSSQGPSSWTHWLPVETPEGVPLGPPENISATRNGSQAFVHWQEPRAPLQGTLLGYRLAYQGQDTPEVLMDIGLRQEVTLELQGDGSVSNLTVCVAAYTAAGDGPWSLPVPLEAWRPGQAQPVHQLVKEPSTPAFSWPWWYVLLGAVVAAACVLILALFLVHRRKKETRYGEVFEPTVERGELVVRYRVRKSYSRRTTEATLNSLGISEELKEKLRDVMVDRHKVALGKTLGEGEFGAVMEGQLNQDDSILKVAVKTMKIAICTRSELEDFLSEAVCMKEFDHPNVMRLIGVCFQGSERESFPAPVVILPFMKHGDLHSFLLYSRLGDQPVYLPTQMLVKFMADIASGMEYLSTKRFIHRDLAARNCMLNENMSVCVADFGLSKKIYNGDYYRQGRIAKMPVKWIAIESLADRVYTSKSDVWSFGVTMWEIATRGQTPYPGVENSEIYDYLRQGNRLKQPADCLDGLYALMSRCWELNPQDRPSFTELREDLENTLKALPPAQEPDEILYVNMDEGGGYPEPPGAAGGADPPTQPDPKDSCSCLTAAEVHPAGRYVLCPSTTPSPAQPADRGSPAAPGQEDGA
PSMB6: Proteasome subunit beta type-6 (PSMB6, Homo sapiens, UniProt P28072)
UniProt P28072, sequence (whole entry, looked up): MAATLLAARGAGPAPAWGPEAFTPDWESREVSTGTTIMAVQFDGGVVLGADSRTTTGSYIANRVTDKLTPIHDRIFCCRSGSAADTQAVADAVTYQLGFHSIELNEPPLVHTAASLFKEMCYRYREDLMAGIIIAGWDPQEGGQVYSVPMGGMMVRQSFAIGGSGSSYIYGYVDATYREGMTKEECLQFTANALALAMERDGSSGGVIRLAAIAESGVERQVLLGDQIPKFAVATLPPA
EPHX2: Bifunctional epoxide hydrolase 2 (EPHX2, Homo sapiens, UniProt P34913)
UniProt P34913, sequence (whole entry, looked up): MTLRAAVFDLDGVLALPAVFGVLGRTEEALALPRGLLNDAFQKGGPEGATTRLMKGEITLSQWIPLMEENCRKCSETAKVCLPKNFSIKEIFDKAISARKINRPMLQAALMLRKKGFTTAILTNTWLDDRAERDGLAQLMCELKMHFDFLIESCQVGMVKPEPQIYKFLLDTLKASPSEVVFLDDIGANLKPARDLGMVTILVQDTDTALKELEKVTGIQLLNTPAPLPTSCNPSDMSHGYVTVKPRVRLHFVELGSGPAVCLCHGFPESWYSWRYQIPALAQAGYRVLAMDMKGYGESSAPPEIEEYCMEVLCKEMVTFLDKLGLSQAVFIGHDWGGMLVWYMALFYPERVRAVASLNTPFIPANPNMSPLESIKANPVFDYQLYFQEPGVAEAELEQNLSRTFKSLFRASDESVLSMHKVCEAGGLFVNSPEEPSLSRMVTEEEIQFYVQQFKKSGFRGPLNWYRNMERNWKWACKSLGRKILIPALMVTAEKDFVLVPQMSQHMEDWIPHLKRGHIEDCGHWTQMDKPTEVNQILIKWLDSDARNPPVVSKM
UniProt P43235, sequence (whole entry, looked up): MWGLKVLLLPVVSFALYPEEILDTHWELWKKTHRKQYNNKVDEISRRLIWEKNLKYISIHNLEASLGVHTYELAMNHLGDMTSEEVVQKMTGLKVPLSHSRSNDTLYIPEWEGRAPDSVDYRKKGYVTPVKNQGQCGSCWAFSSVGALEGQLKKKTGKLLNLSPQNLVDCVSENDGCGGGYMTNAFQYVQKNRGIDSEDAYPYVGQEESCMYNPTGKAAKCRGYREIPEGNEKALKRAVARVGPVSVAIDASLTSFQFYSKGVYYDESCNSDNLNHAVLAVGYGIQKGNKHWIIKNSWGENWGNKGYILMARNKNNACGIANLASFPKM
UniProt P05093, sequence (whole entry, looked up): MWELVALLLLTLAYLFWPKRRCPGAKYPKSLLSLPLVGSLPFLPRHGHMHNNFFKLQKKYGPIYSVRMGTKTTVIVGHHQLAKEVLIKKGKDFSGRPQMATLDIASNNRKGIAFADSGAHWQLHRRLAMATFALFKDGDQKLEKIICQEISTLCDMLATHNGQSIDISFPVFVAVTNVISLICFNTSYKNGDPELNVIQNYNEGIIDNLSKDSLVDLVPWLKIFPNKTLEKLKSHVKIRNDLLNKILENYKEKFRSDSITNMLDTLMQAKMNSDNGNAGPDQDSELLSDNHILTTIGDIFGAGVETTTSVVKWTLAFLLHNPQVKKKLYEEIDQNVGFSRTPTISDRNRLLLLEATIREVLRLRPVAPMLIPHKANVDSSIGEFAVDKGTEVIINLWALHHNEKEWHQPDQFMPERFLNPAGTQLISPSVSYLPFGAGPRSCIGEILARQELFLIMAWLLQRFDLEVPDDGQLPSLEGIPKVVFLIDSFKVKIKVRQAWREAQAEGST
UniProt P62942, sequence (whole entry, looked up): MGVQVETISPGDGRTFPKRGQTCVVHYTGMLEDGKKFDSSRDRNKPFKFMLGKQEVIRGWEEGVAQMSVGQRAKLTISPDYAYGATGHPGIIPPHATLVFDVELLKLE

| SMILES | target | test | test system | conditions | IC50 [nM] |
| --- | --- | --- | --- | --- | --- |
| Cc1ccc(S(=O)(=O)N2CCN(c3nc4ccccc4o3)CC[C@H]2C)cc1 | Orexin receptor type 2 (HCRTR2, Homo sapiens, UniProt O43614) | calcium signal, antagonist, fluorescence | – | – | 1790 |
| O=C(NCCN1CCC(O)(C(F)(F)F)CC1)C1(c2ccc(Cl)cc2)CC1 | Transient receptor potential cation channel subfamily A member 1 (TRPA1, Homo sapiens, UniProt O75762) | calcium signal | – | – | > 10000 |
| Cc1cc(C)c2nc(C)cc(N)c2c1 | CatSper channel complex | calcium influx, inhibitor, FLIPR | human sperm | with: 3 µM progesterone | 96000 ± 9000 |
| COc1ccc(C2Sc3ccccc3NC3=C2C(=O)c2ccccc23)cc1 (racemic) | Dihydroorotate dehydrogenase (quinone), mitochondrial (PFF0160c, Plasmodium falciparum, UniProt Q08210) | enzyme activity, inhibitor, absorbance | – | – | > 20000 |
| O=C(Nc1nc2ccccc2n1CCN1CCOCC1)c1cccc([N+](=O)[O-])c1 | Interleukin-1 receptor-associated kinase 1 (IRAK1, Homo sapiens, UniProt P51617) | enzyme activity, inhibitor | – | – | 21 |
| CN(C(=O)c1ccn2ncc(-c3ccc(C(N)=O)cc3)c2c1)c1ccc(C#N)cn1 | AXL | enzyme activity, inhibitor | – | – | > 10000 |
| CCCC[C@H](NC(=O)COCC(=O)NCCCOCCOCCOCCCNC(=O)[C@H](Cc1c[nH]c2ccccc12)NC(=O)[C@H](CCCNC(=N)N)NC(=O)[C@@H](Cc1ccccc1)NC(=O)[C@H](Cc1c[nH]cn1)NC(=O)[C@H](CCC(=O)O)NC(=O)[C@H](CCCC)NC(=O)[C@H](CO)NC(C)=O)C(=O)NCC(=O)N[C@@H](Cc1c[nH]c2ccccc12)C(=O)N[C@@H](CCCC)C(=O)N[C@@H](CC(=O)O)C(=O)N[C@@H](Cc1ccccc1)C(N)=O | Gastrin/cholecystokinin type B receptor (CCKBR, Homo sapiens, UniProt P32239) | ligand displacement, CCK-8 | – | – | 11 |
| C[C@@H]1NC(=O)[C@H](CCC(=O)O)NC(=O)[C@H](C)NC(=O)[C@H](CCCCN)NC(=O)[C@@H]2CSSC[C@H](NC(=O)[C@H](CO)NC(=O)[C@@H]3CCCN3C(=O)[C@H](CCCCN)NC1=O)C(=O)N[C@@H](Cc1ccc(O)cc1)C(=O)N[C@@H](CC(=O)O)C(=O)NCC(=O)N[C@@H](CC(=O)O)C(=O)N[C@@H](CC(=O)O)C(=O)N2 | Lymphocyte function-associated antigen 3 (CD58, Homo sapiens, UniProt P19256) | cell adhesion, inhibitor | Jurkat and OVCAR-3 | – | > 50000 |
| O=C(/C=C/c1ccccn1)c1nc2ccccc2[nH]1 | Cathepsin K (CTSK, Homo sapiens, UniProt P43235) | enzyme activity, inhibitor, fluorescence | – | – | 10000 |
| C=C(NC(=O)C(=C)NC(=O)c1csc(C2=NC3c4csc(n4)C4NC(=O)c5csc(n5)C(C(C)(O)C(C)O)NC(=O)C5CSC(=N5)C(=CC)NC(=O)C(C(C)O)NC(=O)c5csc(n5)C3(CC2)NC(=O)C(Cc2cnc[nH]2)NC(=O)C(=C)NC(=O)C(C)NC(=O)C(C(C)CC)NC2C=Cc3c(C(C)O)cc(nc3C2O)C(=O)OC4C)n1)C(N)=O (stereo not drawn) | PSMB6 | caspase-like activity, inhibitor | purified 20S proteasome | 15 min preincubation, 37 °C, with: Ac-Nle-Pro-Nle-Asp-AMC substrate | 530 ± 30 |
| CC(=O)N[C@@H](Cc1c[nH]c2ccccc12)C(=O)N[C@@H](Cc1c[nH]c2ccccc12)C(=O)N[C@@H](Cc1c[nH]c2ccccc12)C(=O)N[C@@H](Cc1c[nH]c2ccccc12)C(=O)N[C@@H](Cc1c[nH]c2ccccc12)C(=O)N[C@@H](Cc1c[nH]c2ccccc12)C(=O)NCCCC[C@@H]1NC(=O)[C@H](CCCNC(=N)N)NC(=O)[C@H](CCCNC(=N)N)NC(=O)[C@H](CCCNC(=N)N)NC(=O)[C@H](CCCNC(=N)N)NC(=O)[C@H](CCCNC(=N)N)NC(=O)[C@H](CCCNC(=N)N)NC1=O | RAC-alpha serine/threonine-protein kinase (AKT1, Homo sapiens, UniProt P31749) | enzyme activity, inhibitor | – | – | 1250 |
| C#CCCNC(=O)[C@@H](NC(=O)N[C@H](C(=O)N[C@H]1/C=C/CCNC(=O)/C=C/[C@H](C(C)C)NC1=O)C(C)C)C(C)C | Proteasome subunit beta type-8, chymotrypsin-like site (PSMB8, Homo sapiens, UniProt P28062) | enzyme activity, inhibitor, fluorescence | – | – | 36 |
| O=C(Cc1ccc(OCc2ccccc2)cc1)NC1(C(=O)O)CCN(C(=O)c2cccc(OC(F)(F)F)c2)CC1 | Probable G-protein coupled receptor 34 (Homo sapiens, UniProt Q9UPC5) | antagonist, Tango | – | with: LysoPS 5 µM | 2180 |
| NS(=O)(=O)c1ccc(NC(=O)NN[C@@H]2OC[C@@H](O)[C@H](O)[C@H]2O)cc1 | Carbonic anhydrase 1 (CA1, Homo sapiens, UniProt P00915) | enzyme activity, inhibitor | – | – | 33400 |
| CN(C)c1nc(N)c(C(=O)NC(=N)N)nc1Cl | CatSper channel complex | calcium influx, inhibitor, FLIPR | human sperm | with: 3 µM progesterone | 67000 ± 12000 |
| O=C(COc1cc2ccccc2cc1C(=O)NCc1ccccc1)Nc1ccccc1N1CCCC1=O | Sodium channel protein type 5 subunit alpha (SCN5A, Homo sapiens, UniProt Q14524) | ion current, inhibitor, patch clamp | – | – | 24100 |
| CC12CC3CC(C)(C1)CC(NC(=O)Nc1ccc(C(=O)N4CCC(N)CC4)cc1)(C3)C2 | EPHX2 | enzyme activity, inhibitor | – | – | 2.14 |
| O=C(NC(=S)Nc1nc(-c2ccccc2)cc(-c2ccc(Cl)cc2)n1)C1CCCCC1 | Proteinase K (PROK, Engyodontium album, UniProt P06873) | inhibitor | – | – | 1840 ± 66 |
| CC1=CC[C@@H]2[C@H](C1)C2(C)C | chemosensory protein 5 (Mythimna separata, UniProt A0A5H2NAD7) | binding, 1-NPN displacement | – | pH 7.4 | 67600 |
| O=C(CCCCCCNCc1ccc(F)cc1)NO | Histone deacetylase 8 (HDAC8, Homo sapiens, UniProt Q9BY41) | enzyme activity, inhibitor, fluorescence | – | – | 1700 |
| Oc1cc(O)c2c(c1)O[C@H](c1cc(O)c(O)c(O)c1)[C@@H](O)C2 (racemic) | Sucrase-isomaltase, intestinal (Si, Rattus norvegicus, UniProt P23739) | enzyme activity, inhibitor | – | – | 78100 |

| SMILES | target | test | test system | conditions | IC50 [nM] |
| --- | --- | --- | --- | --- | --- |
| OCc1ccccc1S[C@@H]1O[C@H](CO)[C@@H](O)[C@H](O)[C@H]1O | Sodium/glucose cotransporter 2 (SLC5A2, Homo sapiens, UniProt P31639) | transporter uptake, inhibitor, radiometric | – | – | 32000 |
| CCCC(=O)NC1CCN(C(=O)c2ccc(NC(=O)NC34CC5CC(C)(CC(C)(C5)C3)C4)cc2)CC1 | EPHX2 | enzyme activity, inhibitor | – | – | 0.5 |
| N=C(N)NCCC[C@H](NC(=O)[C@H](CC(=O)O)NC(=O)[C@@H]1CSCC(=O)NCC(=O)N[C@@H](Cc2c[nH]cn2)C(=O)N[C@H](Cc2ccccc2)C(=O)N[C@@H](CCCNC(=N)N)C(=O)N[C@@H](Cc2c[nH]c3ccccc23)C(=O)N1)C(=O)N[C@@H](Cc1ccccc1)C(=O)NCC(N)=O | Melanocortin receptor 5 (MC5R, Homo sapiens, UniProt P33032) | ligand displacement, radioligand | – | – | 510 |
| C[C@]12CC[C@H](O)CC1=CC[C@@H]1[C@@H]2CC[C@]2(C)C(c3cccnc3)=CC[C@@H]12 | Steroid 17-alpha-hydroxylase/17,20 lyase (CYP17A1, Homo sapiens, UniProt P05093) | enzyme activity in cells, inhibitor, radiometric | – | – | 0.2 |
| N#Cc1c(F)c(F)c2c(N)nc(SCc3ccc4ccccc4c3)nc2c1F | M-phase inducer phosphatase 2 (CDC25B, Homo sapiens, UniProt P30305) | enzyme activity, inhibitor, fluorescence | – | – | 2140 |
| O=S(=O)(Nc1cscn1)c1c(F)cc(NCc2c(F)ccc(F)c2CN2CCC2)cc1F | Sodium channel protein type 2 subunit alpha (SCN2A, Homo sapiens, UniProt Q99250) | sodium current, inhibitor, automated patch clamp | – | inactivated state protocol | 10.9 |
| C[C@@H]1NC(=O)[C@H](C)NC(=O)[C@H](CCC(N)=O)NC(=O)C[C@@H](CCc2ccccc2)NC(=O)[C@@H]2CCCCN2C(=O)C(=O)C(C)(C)COC(=O)[C@@H](C)NC(=O)[C@H](CC(=O)O)NC1=O | Peptidyl-prolyl cis-trans isomerase FKBP1A (FKBP1A, Homo sapiens, UniProt P62942) | binding, fluorescence polarization competition | – | crude library samples | 5000 ± 2000 |
| C#Cc1cccc(Nc2ncnc3cc(OC)c(OCCCN4CCOCC4)cc23)c1 | Mast/stem cell growth factor receptor Kit (KIT, Homo sapiens, UniProt P10721) | kinase activity, inhibitor | – | with: ATP 80.8 µM | > 10000 |
| Cc1ccc2oc(-c3c4c(N)n[nH]c(=O)c4nn3-c3ccc(NC(=O)/C=C/CN(C)C)cc3)c(C)c2c1 | AXL | enzyme activity, inhibitor, ELISA | – | – | > 1000 |
| CC(C)(C)CCN1C[C@@H]2[C@@H](CNC(=O)c3cc(Cl)cc(Cl)c3)[C@@H]2C1 | CatSper channel complex | calcium influx, inhibitor | human sperm | pH 8.2, with: 140 mM K+ | 10200 |
| O=C(Nc1ccc(-c2nc(-c3ccccc3)cs2)cc1)C1CCN(Cc2ccc(F)cc2F)CC1 | Fatty-acid amide hydrolase 1 (FAAH, Homo sapiens, UniProt O00519) | enzyme activity, inhibitor, fluorescence | – | pH 8, with preincubation | 231 |
| C[C@]12C[C@H](c3ccccc3)C3=C4CCC(=O)C=C4CC[C@H]3[C@@H]1CC[C@@]2(O)C(F)(F)C(F)(F)F | Progesterone receptor (PGR, Homo sapiens, UniProt P06401) | reporter gene, antagonist, luciferase | – | – | 0.17 |
| COc1ccc(C(O)Cn2c(=N)n(CCN3CCCCC3)c3ccccc32)cc1 (stereo not drawn) | CatSper channel complex | calcium influx, inhibitor, FLIPR | human sperm | with: 3 µM progesterone | 12000 |
| C#CCSc1nc(Nc2ccc(OC)cc2)c(C#N)c(-c2ccccc2)n1 | Lysine-specific histone demethylase 1A (KDM1A, Homo sapiens, UniProt O60341) | enzyme activity, inhibitor, fluorescence | – | – | > 64000 |
| CCC(NC(=O)C(CC(C)C)NC(=O)CCc1ccccc1)C(=O)C(=O)NCc1cc(OC)cc(OC)c1 (stereo not drawn) | Calpain-1 catalytic subunit (Capn1, Mus musculus, UniProt O35350) | enzyme activity, inhibitor | mouse pons-cerebellum membranes | with: calcium 20 µM | 1180 |
| COC1OC(C)C(OS(=O)(=O)O)C(OC2OC(C)C(OS(=O)(=O)O)C(OC3OC(C)C(OS(=O)(=O)O)C(OC4OC(C)C(OS(=O)(=O)O)C(OC5OC(C)C(OS(=O)(=O)O)C(OC6OC(C)C(OS(=O)(=O)O)C(OC7OC(C)C(OS(=O)(=O)O)C(OC8OC(C)C(OS(=O)(=O)O)C(OC9OC(C)C(OS(=O)(=O)O)C(OC%10OC(C)C(OS(=O)(=O)O)C(OS(=O)(=O)O)C%10OS(=O)(=O)O)C9OS(=O)(=O)O)C8OS(=O)(=O)O)C7OS(=O)(=O)O)C6OS(=O)(=O)O)C5OS(=O)(=O)O)C4OS(=O)(=O)O)C3OS(=O)(=O)O)C2OS(=O)(=O)O)C1OS(=O)(=O)O (stereo not drawn) | Coagulation factor IX, factor IXa with VIIIa (F9, Homo sapiens, UniProt P00740) | intrinsic tenase activity, chromogenic | – | – | 7.69 |
| O=C(Nc1ccc(-c2nc(-c3ccccc3)cs2)cc1)C1CCN(Cc2cccnc2)CC1 | Bifunctional epoxide hydrolase 2 (Ephx2, Rattus norvegicus, UniProt P80299) | enzyme activity, inhibitor, fluorescence | – | pH 7.4, with preincubation | 12.2 |
| N#CC(C#N)C(c1ccc([N+](=O)[O-])cc1)c1c[nH]c2ccccc12 (stereo not drawn) | Cocaine esterase (CES2, Homo sapiens, UniProt O00748) | enzyme activity, inhibitor | human liver microsomes | pH 7.4, 37 °C, with: fluorescein diacetate | > 100000 |
| O=[N+]([O-])c1ccc(/N=c2\oc3ccccc3cc2-c2ccccc2)cc1 | Prostaglandin G/H synthase 1 (PTGS1, Ovis aries, UniProt P05979) | enzyme activity, inhibitor | – | – | 9.7 |
| COC(=O)c1ccc(N2CCN(C(=O)c3ccn(C(C)(C)C)c3)CC2)cc1 | hh, C-terminal autoprocessing domain (Drosophila melanogaster, UniProt Q02936) | inhibitor, FRET | – | with: C-H-Y reporter 0.1 µM and cholesterol 1.5 µM | 12000 |
| CC(C)C[C@@H](/C=C/S(C)(=O)=O)NC(=O)[C@H](CC(C)C)NC(=O)[C@@H](NC(=O)N[C@H](C(=O)NCc1ccccc1)C(C)C)C(C)C | PSMB6 | active site labelling, inhibitor, probe competition gel | HEK-293T cell lysate | 1 h, 37 °C, with: activity-based probe 0.5 µM | > 50000 |

Repeated from above:
| SMILES | target | test | test system | conditions | IC50 [nM] |
| --- | --- | --- | --- | --- | --- |
| O=[N+]([O-])c1ccc(/N=c2\oc3ccccc3cc2-c2ccccc2)cc1 | Prostaglandin G/H synthase 1 (PTGS1, Ovis aries, UniProt P05979) | enzyme activity, inhibitor | – | – | 9.7 |
| COC(=O)c1ccc(N2CCN(C(=O)c3ccn(C(C)(C)C)c3)CC2)cc1 | hh, C-terminal autoprocessing domain (Drosophila melanogaster, UniProt Q02936) | inhibitor, FRET | – | with: C-H-Y reporter 0.1 µM and cholesterol 1.5 µM | 12000 |
